Experimental data from different studies.
A part holds a random share of what one study measured. Values joined by “and” are separate records of one study, mostly repeats; a detail may differ.

Sample 1
Structure (SMILES): Cc1ccc(O)c(C)c1-c1cnc2[nH]c(-c3cnc(N4CCC5(CC4)CC(N4CCN(c6ccc(N[C@H]7CCC(=O)N(C)C7=O)cc6F)CC4)CO5)nc3)cc2c1C#N (single isomer, unassigned)
PKMYT1: Membrane-associated tyrosine- and threonine-specific cdc2-inhibitory kinase (PKMYT1, Homo sapiens, UniProt Q99640)
Chain of UniProt Q99640 (whole entry, looked up): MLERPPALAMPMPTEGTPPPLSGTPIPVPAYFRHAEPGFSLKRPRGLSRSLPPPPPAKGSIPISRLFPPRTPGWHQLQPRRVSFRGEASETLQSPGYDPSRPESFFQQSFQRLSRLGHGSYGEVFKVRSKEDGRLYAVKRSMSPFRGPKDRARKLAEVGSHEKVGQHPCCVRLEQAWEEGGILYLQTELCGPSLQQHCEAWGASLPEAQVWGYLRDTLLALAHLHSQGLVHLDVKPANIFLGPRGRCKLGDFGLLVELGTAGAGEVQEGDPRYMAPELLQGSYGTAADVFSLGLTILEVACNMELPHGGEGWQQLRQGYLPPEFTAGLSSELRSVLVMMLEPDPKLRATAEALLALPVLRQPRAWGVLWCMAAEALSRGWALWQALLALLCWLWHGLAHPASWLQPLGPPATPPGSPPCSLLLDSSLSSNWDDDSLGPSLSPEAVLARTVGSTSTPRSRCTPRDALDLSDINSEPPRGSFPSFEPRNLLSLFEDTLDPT
| target or system | assay | setting | inhibition |
| --- | --- | --- | --- |
| PKMYT1 | enzyme activity, inhibitor | 12.35 nM | 57.8% and 60.2% |
| HCC1569 | automated capillary immunoblot, measured: CDK1 phospho-Thr14 | 37.04 nM, 24 h | 35.4% |
| HCC1569 | automated capillary immunoblot, measured: CDK1 phospho-Thr14 | 0.15 nM, 24 h | -5.25% |
| PKMYT1 | enzyme activity, inhibitor | 1 µM | 97.6% and 94.3% |
| HCC1569 | automated capillary immunoblot, measured: CDK1 phospho-Thr14 | 111.11 nM, 24 h | 56.9% |
| HCC1569 | automated capillary immunoblot, measured: CDK1 phospho-Thr14 | 1.37 nM, 24 h | 7.8% |
| PKMYT1 | kinase activity, inhibitor | 0.3333 µM | 96.8% and 98% |

Sample 2
Compound: Cc1ncsc1-c1ccc(C(CO)NC(=O)C2CC(O)CN2C(=O)C(C(C)C)n2cc(-c3ccc(COc4c(-c5c(C)c(F)cc6[nH]ncc56)c(C5CC5)cc5c(N6CC7CC6CN7)nc(OC6CCOCC6)nc45)cc3)nn2)cc1 (stereo not shown)
| system | setting | tumour volume |
| --- | --- | --- |
| KP-4 xenograft, mouse | 30 mg/kg once weekly, day 4 | 186 mm3 and 148 mm3 and 151 mm3 and 185 mm3 and 175 mm3 |
| GP2d xenograft, mouse | 30 mg/kg once weekly, day 11 | 195 mm3 and 246 mm3 and 232 mm3 and 168 mm3 and 145 mm3 |
| HPAC xenograft, mouse | 30 mg/kg twice weekly, day 11 | 233 mm3 and 250 mm3 and 264 mm3 and 224 mm3 and 354 mm3 |
| mouse, PK-59 xenograft | 30 mg/kg, day 10 | 220 mm3 and 150 mm3 and 210 mm3 and 182 mm3 and 140 mm3 |
| mouse, PK-59 xenograft | 0.3 mg/kg, day 0 | 238 mm3 and 268 mm3 and 312 mm3 and 324 mm3 and 304 mm3 |
| PK-1 xenograft, mouse | 30 mg/kg once weekly, day 10 | 157 mm3 and 179 mm3 and 165 mm3 and 151 mm3 and 190 mm3 |
| mouse, lung LXFA sample B PDX | 10 mg/kg twice weekly, day 11 | 43.2 mm3 and 273 mm3 and 79.4 mm3 and 117 mm3 and 314 mm3 and 180 mm3 and 202 mm3 and 88.2 mm3 |
| mouse, PK-59 xenograft | 10 mg/kg, day 17 | 208 mm3 and 187 mm3 and 242 mm3 and 213 mm3 and 182 mm3 |
| ASPC1 xenograft, mouse | 30 mg/kg once weekly, day 14 | 211 mm3 and 218 mm3 and 278 mm3 and 205 mm3 and 229 mm3 |
| mouse, lung LXFA sample A PDX | 10 mg/kg twice weekly, day 15 | 84.2 mm3 and 146 mm3 and 182 mm3 and 231 mm3 and 79.5 mm3 and 250 mm3 and 83.3 mm3 and 436 mm3 |

Sample 3 — observed: enzyme activity; mode: inhibitor; method: Ub-TR-FRET; sample: HECT domain; tested at: 1.235 µM; reading: higher = more chain formation
Target: E3 ubiquitin-protein ligase NEDD4, HECT domain (Homo sapiens, UniProt P46934)
Residues (P46934 938-1319, limits assumed): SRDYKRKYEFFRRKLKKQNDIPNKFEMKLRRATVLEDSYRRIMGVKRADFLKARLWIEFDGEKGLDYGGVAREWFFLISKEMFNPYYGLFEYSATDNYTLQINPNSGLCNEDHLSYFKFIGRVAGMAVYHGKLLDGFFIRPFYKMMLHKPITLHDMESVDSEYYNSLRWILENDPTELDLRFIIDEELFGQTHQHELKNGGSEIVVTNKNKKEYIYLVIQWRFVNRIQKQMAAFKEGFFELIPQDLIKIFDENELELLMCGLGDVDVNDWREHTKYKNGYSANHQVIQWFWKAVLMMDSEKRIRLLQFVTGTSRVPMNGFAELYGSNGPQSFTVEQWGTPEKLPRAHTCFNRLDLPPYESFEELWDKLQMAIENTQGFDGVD
| SMILES | ubiquitin chain formation AUC |
| --- | --- |
| CCOC(=O)/C=C/CNCCCCN1c2cc(Cl)ccc2COc2ccccc21.O=C(O)/C=C\C(=O)O | 50800 a.u. and 44500 a.u. and 34900 a.u. |
| CCOC(=O)/C=C/CNCCCCN1c2cc(Cl)ccc2C(=O)N(C)c2ccccc21.O=C(O)/C=C\C(=O)O | 61300 a.u. and 65500 a.u. and 60400 a.u. |
| CCOC(=O)/C=C/CNCCCN1c2ccccc2CCc2ccc(Cl)cc21 | 27100 a.u. and 24600 a.u. and 25000 a.u. |
| CNC(=O)/C=C/CNCCCCN1c2ccccc2CCc2ccc(Cl)cc21.Cl | 67200 a.u. and 84900 a.u. and 83600 a.u. and 81400 a.u. and 68000 a.u. and 67400 a.u. |
| CNC(=O)/C=C/CNCCCN1c2ccccc2CCc2ccc(Cl)cc21.Cl | 129000 a.u. and 130000 a.u. |
| CCONC(=O)/C=C/CNCCCCN1c2ccccc2CCc2ccc(Cl)cc21.O=C(O)/C=C\C(=O)O | 13700 a.u. and 7770 a.u. and 15300 a.u. and 8050 a.u. and 14300 a.u. and 8180 a.u. |
| CN(C)C/C=C/C(=O)NCCCN1c2ccccc2CCc2ccc(Cl)cc21 | 130000 a.u. and 128000 a.u. and 129000 a.u. |
| N#C/C=C/CNCCCCN1c2ccccc2CCc2ccc(Cl)cc21.O=C(O)/C=C\C(=O)O | 20600 a.u. and 13300 a.u. and 13000 a.u. and 14100 a.u. and 23100 a.u. and 14000 a.u. |

Sample 4 — cell line: U-87 MG; tested at: concentration not given; relative to: DMSO
Compound: CCN1/C(=C/C=C2\CCCC(/C=C/C3=[N+](CC)c4ccccc4C3(C)C)=C2NCCCCCCCCN2CCC(Nc3nc4ccccc4n3Cc3ccc(F)cc3)CC2)C(C)(C)c2ccccc21
| assay | log2 fold change |
| --- | --- |
| measured: SELENOS mRNA | 1.09 |
| measured: UAP1 mRNA | 0.99 |
| measured: KIF27 mRNA | 1.2 |
| measured: SLF2 mRNA | -0.892 |
| measured: GM2A mRNA | -0.815 |
| measured: CAB39L mRNA | 1.34 |
| measured: COL1A2 mRNA | -2.64 |
| measured: FUT8 mRNA | -1.19 |
| measured: FIBCD1 mRNA | -1.71 |
| measured: SLU7 mRNA | 1.03 |
| measured: FAM20C mRNA | -2.53 |
| measured: CEP85L mRNA | 0.833 |
| measured: ETNK1 mRNA | 0.814 |
| measured: NFKBIZ mRNA | 2.31 |
| measured: SLC33A1 mRNA | 1.26 |

Repeated from above (sample 4):
| assay | log2 fold change |
| --- | --- |
| measured: CAB39L mRNA | 1.34 |
| measured: SLU7 mRNA | 1.03 |
| measured: SLF2 mRNA | -0.892 |
| measured: UAP1 mRNA | 0.99 |
